Measured values pooled from the literature.
A part holds a random share of what one study measured.
Chain of UniProt P20794 (whole entry, looked up): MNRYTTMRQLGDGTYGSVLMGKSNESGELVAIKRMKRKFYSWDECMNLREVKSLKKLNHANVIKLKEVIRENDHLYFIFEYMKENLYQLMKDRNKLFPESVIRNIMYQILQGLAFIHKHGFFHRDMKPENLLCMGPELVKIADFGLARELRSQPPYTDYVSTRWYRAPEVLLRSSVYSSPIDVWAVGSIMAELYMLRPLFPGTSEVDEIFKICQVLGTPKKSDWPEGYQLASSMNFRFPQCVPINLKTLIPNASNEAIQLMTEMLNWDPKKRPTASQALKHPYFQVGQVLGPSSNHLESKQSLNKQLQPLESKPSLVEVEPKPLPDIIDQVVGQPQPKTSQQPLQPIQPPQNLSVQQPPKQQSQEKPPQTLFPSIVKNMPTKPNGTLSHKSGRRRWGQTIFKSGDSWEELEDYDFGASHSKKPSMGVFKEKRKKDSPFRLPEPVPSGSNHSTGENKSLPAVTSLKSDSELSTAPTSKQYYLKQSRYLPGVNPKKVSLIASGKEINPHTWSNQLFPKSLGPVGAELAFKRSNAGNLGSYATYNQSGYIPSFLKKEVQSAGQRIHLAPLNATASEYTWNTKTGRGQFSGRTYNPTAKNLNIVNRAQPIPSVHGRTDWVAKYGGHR
Chain of UniProt P45983 (whole entry, looked up): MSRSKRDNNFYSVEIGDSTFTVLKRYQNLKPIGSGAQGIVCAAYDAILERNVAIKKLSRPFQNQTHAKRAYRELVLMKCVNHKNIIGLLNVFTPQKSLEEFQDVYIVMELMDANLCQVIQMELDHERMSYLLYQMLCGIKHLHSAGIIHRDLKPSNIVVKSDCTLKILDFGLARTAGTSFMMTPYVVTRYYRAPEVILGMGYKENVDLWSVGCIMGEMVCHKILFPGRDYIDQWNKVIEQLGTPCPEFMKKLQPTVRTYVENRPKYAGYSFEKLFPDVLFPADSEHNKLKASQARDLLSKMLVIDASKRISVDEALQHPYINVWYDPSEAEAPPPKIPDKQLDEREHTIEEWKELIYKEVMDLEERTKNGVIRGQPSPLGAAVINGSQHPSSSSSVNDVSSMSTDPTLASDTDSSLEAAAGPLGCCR
Chain of UniProt Q8NE63 (whole entry, looked up): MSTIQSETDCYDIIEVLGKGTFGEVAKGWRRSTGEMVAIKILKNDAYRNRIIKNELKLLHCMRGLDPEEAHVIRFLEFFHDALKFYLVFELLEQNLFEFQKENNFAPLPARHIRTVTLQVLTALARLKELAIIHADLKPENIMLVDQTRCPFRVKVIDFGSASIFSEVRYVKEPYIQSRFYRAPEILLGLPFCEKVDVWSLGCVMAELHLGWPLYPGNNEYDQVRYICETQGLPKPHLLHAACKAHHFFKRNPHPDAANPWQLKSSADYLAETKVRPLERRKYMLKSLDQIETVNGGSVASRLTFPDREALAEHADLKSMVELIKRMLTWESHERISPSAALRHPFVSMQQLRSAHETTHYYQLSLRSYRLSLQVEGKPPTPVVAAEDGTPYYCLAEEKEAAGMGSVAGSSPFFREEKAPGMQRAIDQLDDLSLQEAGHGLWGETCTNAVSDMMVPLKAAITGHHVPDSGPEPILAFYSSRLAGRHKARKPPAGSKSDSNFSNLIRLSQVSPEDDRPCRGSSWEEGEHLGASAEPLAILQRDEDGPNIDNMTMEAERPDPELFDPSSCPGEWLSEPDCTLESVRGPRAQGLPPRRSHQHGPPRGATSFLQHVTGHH
Chain of UniProt Q32MK0 (whole entry, looked up): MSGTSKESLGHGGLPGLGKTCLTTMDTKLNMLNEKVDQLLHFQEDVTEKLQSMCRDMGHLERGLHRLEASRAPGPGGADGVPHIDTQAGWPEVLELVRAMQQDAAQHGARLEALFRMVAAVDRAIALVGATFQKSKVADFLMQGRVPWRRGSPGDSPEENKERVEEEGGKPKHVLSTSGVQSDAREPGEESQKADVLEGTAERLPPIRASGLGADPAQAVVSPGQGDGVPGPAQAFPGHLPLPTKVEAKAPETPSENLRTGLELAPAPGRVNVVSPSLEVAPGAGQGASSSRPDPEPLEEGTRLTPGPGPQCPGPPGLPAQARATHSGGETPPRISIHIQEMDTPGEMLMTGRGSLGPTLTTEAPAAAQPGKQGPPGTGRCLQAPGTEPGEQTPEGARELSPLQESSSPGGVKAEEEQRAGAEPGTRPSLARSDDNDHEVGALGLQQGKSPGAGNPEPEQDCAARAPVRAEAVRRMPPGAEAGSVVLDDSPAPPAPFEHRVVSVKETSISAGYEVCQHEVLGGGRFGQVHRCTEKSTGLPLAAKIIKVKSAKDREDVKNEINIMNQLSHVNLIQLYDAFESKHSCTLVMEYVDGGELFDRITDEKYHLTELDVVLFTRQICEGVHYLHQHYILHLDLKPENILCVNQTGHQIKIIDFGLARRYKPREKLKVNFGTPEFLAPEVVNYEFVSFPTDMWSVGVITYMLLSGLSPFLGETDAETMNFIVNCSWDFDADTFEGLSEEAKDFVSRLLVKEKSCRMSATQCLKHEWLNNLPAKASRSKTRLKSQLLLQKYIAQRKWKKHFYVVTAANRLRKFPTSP
Chain of UniProt Q15569 (whole entry, looked up): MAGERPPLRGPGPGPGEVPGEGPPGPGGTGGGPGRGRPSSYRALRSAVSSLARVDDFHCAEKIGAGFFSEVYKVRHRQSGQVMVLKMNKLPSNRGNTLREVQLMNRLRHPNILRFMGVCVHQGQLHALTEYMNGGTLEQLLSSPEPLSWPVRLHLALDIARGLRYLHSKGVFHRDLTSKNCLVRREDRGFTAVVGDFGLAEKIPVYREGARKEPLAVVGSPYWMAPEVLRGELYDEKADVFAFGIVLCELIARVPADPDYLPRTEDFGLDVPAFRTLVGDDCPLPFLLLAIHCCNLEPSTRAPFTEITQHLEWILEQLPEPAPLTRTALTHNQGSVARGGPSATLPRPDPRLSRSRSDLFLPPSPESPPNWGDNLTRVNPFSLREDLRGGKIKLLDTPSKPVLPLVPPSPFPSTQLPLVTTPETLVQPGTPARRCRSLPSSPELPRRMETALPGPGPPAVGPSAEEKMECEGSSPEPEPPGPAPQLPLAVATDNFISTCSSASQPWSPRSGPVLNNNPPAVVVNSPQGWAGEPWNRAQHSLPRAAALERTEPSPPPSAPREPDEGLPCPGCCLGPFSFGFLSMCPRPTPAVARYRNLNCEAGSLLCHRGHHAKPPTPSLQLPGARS
Chain of UniProt P28482 (whole entry, looked up): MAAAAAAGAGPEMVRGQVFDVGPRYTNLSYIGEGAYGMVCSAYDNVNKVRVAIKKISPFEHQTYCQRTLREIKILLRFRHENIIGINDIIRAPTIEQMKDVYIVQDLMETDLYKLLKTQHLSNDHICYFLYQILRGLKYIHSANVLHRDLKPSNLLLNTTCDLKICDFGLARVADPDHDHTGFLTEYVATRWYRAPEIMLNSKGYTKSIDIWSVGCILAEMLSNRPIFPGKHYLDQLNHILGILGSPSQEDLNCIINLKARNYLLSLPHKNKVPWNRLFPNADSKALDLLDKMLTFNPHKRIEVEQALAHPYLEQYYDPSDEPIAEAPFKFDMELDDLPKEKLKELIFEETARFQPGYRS

Block 1
Target: Serine/threonine-protein kinase PAK 1 (PAK1, Homo sapiens, UniProt Q13153)
Chain of UniProt Q13153 (whole entry, looked up): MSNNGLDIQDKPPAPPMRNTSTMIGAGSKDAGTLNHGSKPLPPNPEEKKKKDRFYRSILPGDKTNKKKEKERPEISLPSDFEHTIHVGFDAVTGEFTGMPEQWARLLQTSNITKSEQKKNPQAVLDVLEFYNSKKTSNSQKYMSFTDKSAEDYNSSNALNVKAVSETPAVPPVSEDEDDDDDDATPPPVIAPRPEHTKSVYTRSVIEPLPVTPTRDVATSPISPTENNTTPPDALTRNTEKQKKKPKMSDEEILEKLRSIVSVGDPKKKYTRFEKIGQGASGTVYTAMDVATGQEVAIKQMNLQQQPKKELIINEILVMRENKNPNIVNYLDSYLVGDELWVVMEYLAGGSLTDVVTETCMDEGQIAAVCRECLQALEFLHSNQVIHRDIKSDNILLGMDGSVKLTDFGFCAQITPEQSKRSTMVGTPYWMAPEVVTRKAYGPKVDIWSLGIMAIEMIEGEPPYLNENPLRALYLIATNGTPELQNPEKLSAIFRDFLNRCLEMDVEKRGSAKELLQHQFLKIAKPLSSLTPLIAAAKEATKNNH
Observed: enzyme activity
Action: inhibitor
Concentration: 0.5 µM
Baseline: control
Measurement: remaining activity
O=C(Nc1cccc(Nc2cc(Nc3cccc(C(F)(F)F)c3)ncn2)c1)C1CC1: 96.6%
Cc1cccc(-c2[nH]c(C(C)(C)C)nc2-c2ccc3c(c2)OCO3)n1: 96.3%
CN(C)c1ccc(C=C2C(=O)Nc3ccccc32)cc1: 95.7%
O=c1c2ccccc2[nH]c(=S)n1CCN1CCC(=C(c2ccc(F)cc2)c2ccc(F)cc2)CC1: 94.6%
O=C1NC(=O)C(c2cn(CCCO)c3ncccc23)=C1c1cnccn1: 101%
COc1ccc(CNC(=O)Nc2ncc([N+](=O)[O-])s2)cc1: 94.2%
C#Cc1cccc(Nc2ncnc3cc(OCCOC)c(OCCOC)cc23)c1: 109%
Nc1[nH]nc2nc3ccccc3nc12: 97.1%
O=C(CCCc1ccc(-c2ccccc2F)cc1)Nc1ccc(O)cc1: 95.4%
CO[C@H]1C[C@@H]2CC[C@@H](C)[C@@](O)(O2)C(=O)C(=O)N2CCCC[C@H]2C(=O)O[C@H]([C@H](C)C[C@@H]2CC[C@@H](O)[C@H](OC)C2)CC(=O)[C@H](C)/C=C(\C)[C@@H](O)[C@@H](OC)C(=O)[C@H](C)C[C@H](C)/C=C/C=C/C=C/1C: 95.6%
COc1ccc(OC)c2c(=S)c3ccccc3[nH]c12: 89.2%
CNC(=O)c1cc(Oc2ccc(NC(=O)Nc3ccc(Cl)c(C(F)(F)F)c3)cc2)ccn1: 108%
N#CC(C#N)=C(N)/C(C#N)=C/c1ccc(O)cc1: 90.9%
O=C(O)c1ccc2c3c1cccc3c(=O)n1c3ccccc3nc21: 95.6%

Block 2
Organism: Plasmodium berghei
Action: inhibitor
Cells: Huh-7
Strain: GFP-expressing, liver stage
Concentration: 10 µM
Time: 24 h
Baseline: untreated control
Measurement: infection rate
Nc1ccc(S(=O)(=O)Nc2nccs2)cc1: 96.4%
CC(=O)S[C@@H]1CC2=CC(=O)CC[C@]2(C)[C@H]2CC[C@@]3(C)[C@@H](CC[C@@]34CCC(=O)O4)[C@H]12: 84.4%
COc1cnc(NS(=O)(=O)c2ccc(N)cc2)nc1: 114%
COc1ccc(C(=O)c2ccccc2)c(O)c1: 88.2%

Block 3
Structure (SMILES): COc1ccc2cc(OCC3(C(=O)O)CN(C(=O)c4ccc(F)cc4)C3)ccc2c1
Observed: cell-free assay
Technique: competition with immobilised ligand
Concentration: 1 µM
Measurement: remaining binding
HIPK4 (Homo sapiens, UniProt Q8NE63): 100%
MAPK1 (Homo sapiens, UniProt P28482): 97%
MAK (Homo sapiens, UniProt P20794): 100%
TESK1 (Homo sapiens, UniProt Q15569): 98%
MYLK3 (Homo sapiens, UniProt Q32MK0): 100%
MAPK8 (Homo sapiens, UniProt P45983): 76%

Block 4
Target: Beta-1 adrenergic receptor (ADRB1, Homo sapiens, UniProt P08588)
Chain of UniProt P08588 (whole entry, looked up): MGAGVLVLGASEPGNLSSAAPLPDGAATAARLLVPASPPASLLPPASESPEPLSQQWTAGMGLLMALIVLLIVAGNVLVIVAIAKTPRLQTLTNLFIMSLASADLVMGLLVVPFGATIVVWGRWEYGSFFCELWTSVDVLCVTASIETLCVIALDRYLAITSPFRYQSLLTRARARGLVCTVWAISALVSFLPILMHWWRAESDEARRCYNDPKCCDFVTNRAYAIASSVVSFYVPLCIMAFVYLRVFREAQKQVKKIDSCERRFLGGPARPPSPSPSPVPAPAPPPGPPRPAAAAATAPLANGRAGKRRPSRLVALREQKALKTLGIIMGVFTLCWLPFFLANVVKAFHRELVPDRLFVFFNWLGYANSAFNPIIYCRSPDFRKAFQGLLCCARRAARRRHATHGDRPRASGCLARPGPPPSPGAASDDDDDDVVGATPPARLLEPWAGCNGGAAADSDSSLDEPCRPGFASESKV
Action: antagonist
Measurement: IC50
O=C(NCC(O)CO)c1ccc(OC2CCN(CCc3ccccc3)CC2)cc1 (stereo not shown): ≥ 100 µM
COC(=O)CCC(=O)N[C@@H](C)C(=O)N[C@@H](C)C(=O)N1CCC[C@H]1C(=O)N[C@H](C(=O)Nc1ccc2c(C)cc(=O)oc2c1)C(C)C: ≥ 100 µM
COc1ccccc1OCCNCC(O)CCOc1cccc2[nH]c3ccccc3c12 (stereo not shown): 25.1 µM
[O-][n+]1cccc(-c2nc3c(Cl)cccc3cc2[C@@H](Nc2ncnc3cccnc23)C(F)(F)F)c1: ≥ 100 µM
Cn1c(=O)n(-c2ccc(N3CCN(C(=O)OC(C)(C)C)CC3)c(C(F)(F)F)c2)c2c3cc(-c4cncc(Cl)c4)ccc3ncc21: ≥ 100 µM
c1ccc2c(CCNCc3ccc(-n4ccnc4)cc3)c[nH]c2c1: ≥ 100 µM

Single results of other studies
COc1cc(C(=O)N2CCC(N3CCN(C)CC3)CC2)ccc1Nc1ncc2c(n1)N(C)c1ccccc1C(=O)N2C  inhibition (SLK mouse; KiNativ profiling; mouse brain lysate; 0.1 µM, LYS1 site, added: ADP acyl phosphate probe): -11.1%

For quick reference, copied from above (block 1):
O=C1NC(=O)C(c2cn(CCCO)c3ncccc23)=C1c1cnccn1: 101%
COc1ccc(CNC(=O)Nc2ncc([N+](=O)[O-])s2)cc1: 94.2%
C#Cc1cccc(Nc2ncnc3cc(OCCOC)c(OCCOC)cc23)c1: 109%
